Assay results pooled from the literature.
Each line is one published result; not all experiments were run side by side.

SMILES = COc1c(N2CC3CCCNC3C2)c(F)cc2c(=O)c(C(=O)OCc3cnc([N+](=O)[O-])s3)cn(C3CC3)c12 (stereo not drawn); organism = Mycobacterium tuberculosis; test system = MDR; endpoint = MIC; value = 0.125 µM
SMILES = C[C@]12CC[C@H](OC(=O)C3CC3)[C@@](C)(COC(=O)C3CC3)C1C[C@H](O)[C@@]1(C)Oc3cc(-c4cccnc4)oc(=O)c3[C@H](O)C21 (stereo partly drawn); organism = Halyomorpha halys; test = radioligand binding; endpoint = Kd; value = 4.05 nM
SMILES = Oc1cc(CNc2ccccc2)ccc1Oc1ccc(Cl)cc1Cl; organism = Mycobacterium tuberculosis; test system = mc2 5855; endpoint = MIC; value = 10 µg/mL
SMILES = O=C(CN1C(=O)CSC1=O)Oc1ccc(/C=N/NC(=S)Nc2cccc(Cl)c2)cc1Cl; organism = Mycobacterium tuberculosis; test = Alamar blue; test system = MDR 210; endpoint = MIC; value = 32.2 µM
SMILES = COc1ccc2ncc(F)c(C(O)C[C@H]3OC[C@H](NCc4ccc5c(c4)OCCO5)CO3)c2c1 (stereo partly drawn); organism = Mycobacterium tuberculosis; test system = H37Rv gyrA D94K mutant; endpoint = MIC; value = 16 µg/mL
SMILES = CC(=O)N[C@H]1[C@H]([C@H](O)[C@H](O)CO)OC(C(=O)O)=C(C/C=C/c2ccc(C)cc2)[C@@H]1O; organism = Influenza A virus; test = viral replication; test system = A/Paris/1170/2007 (H1N1); conditions = 72 h; endpoint = EC50; value = 0.04 mM
SMILES = COc1ccc2ncc(F)c(CC[C@@]3(O)CO[C@@H]4[C@@H](NCc5ccc(Cl)c(Cl)c5)CO[C@@H]43)c2n1; organism = Mycobacterium tuberculosis; test system = H37Rv rpoB S450L mutant; endpoint = MIC; value = 1 µg/mL
SMILES = NC(=S)N/N=C/c1ccc(OC(=O)/C=C2\SC(=O)NC2=O)cc1; organism = Mycobacterium tuberculosis; test = Alamar blue; test system = MDR 210; endpoint = MIC; value = 31.6 to 45.7 µM
SMILES = COc1ccc2nccc(CC[C@H]3OC[C@H](NC(=O)c4ccc(C)cc4)CO3)c2c1; organism = Mycobacterium tuberculosis; test system = H37Rv rpoB S450L mutant; endpoint = MIC; value = > 32 µg/mL
SMILES = CN[C@@H]1[C@H](O)[C@H](NC)[C@H]2O[C@]3(O)[C@H](O[C@@H]2[C@H]1O)O[C@H](C)C[C@H]3NC(=O)Cc1cc(Cl)ccn1; organism = Mycobacterium tuberculosis; test system = MDR clinical isolates; endpoint = MIC; value = 1 µg/mL
SMILES = COc1ccc2nccc(CC[C@H]3OC[C@H](NC(=O)c4ccc(Cl)cc4)CO3)c2c1; organism = Mycobacterium tuberculosis; test system = H37Rv gyrA D94K mutant; endpoint = MIC; value = 4 µg/mL
SMILES = CN[C@@H]1[C@H](O)[C@H](NC)[C@H]2O[C@]3(O)[C@H](O[C@@H]2[C@H]1O)O[C@H](C)C[C@H]3NC(=O)Cc1cscn1; organism = Mycobacterium tuberculosis; test system = MDR clinical isolates; endpoint = MIC; value = 2 to 4 µg/mL
SMILES = CCOc1cc(/C=N/NC(=O)c2ccccn2)ccc1OC(=O)CN1C(=O)CSC1=O; organism = Mycobacterium tuberculosis; test = Alamar blue; test system = MDR 210; endpoint = MIC; value = 72.3 to 167 µM
SMILES = C=CCC1=C(C(=O)O)O[C@@H]([C@H](O)[C@H](O)CO)[C@H](NC(C)=O)[C@H]1O; organism = Influenza A virus; test = viral replication; test system = A/Paris/1170/2007 (H1N1); conditions = 72 h; endpoint = EC50; value = 2.2 mM
SMILES = COc1cc(/C=N/NC(=O)c2ccncc2)ccc1OC(=O)CN1C(=O)CSC1=O; organism = Mycobacterium tuberculosis; test = Alamar blue; test system = MDR 210; endpoint = MIC; value = 149 µM
SMILES = CCCCCCNCc1ccc(Oc2ccc(Cl)cc2Cl)c(O)c1; organism = Mycobacterium tuberculosis; test system = mc2 5855; endpoint = MIC; value = 5 µg/mL
SMILES = O=C(CN1C(=O)CSC1=O)Oc1ccc(/C=N/NC(=O)c2cccnc2)cc1Br; organism = Mycobacterium tuberculosis; test = Alamar blue; test system = MDR 210; endpoint = MIC; value = 268 µM
SMILES = COc1ccc2nccc(CC[C@H]3OC[C@H](NC(=O)c4ccc(Cl)c(Cl)c4)CO3)c2c1; organism = Mycobacterium tuberculosis; test system = H37Rv gyrA D94K mutant; endpoint = MIC; value = 1 µg/mL

Excerpt of the above:
SMILES = NC(=S)N/N=C/c1ccc(OC(=O)/C=C2\SC(=O)NC2=O)cc1; organism = Mycobacterium tuberculosis; test = Alamar blue; test system = MDR 210; endpoint = MIC; value = 31.6 to 45.7 µM
SMILES = COc1ccc2nccc(CC[C@H]3OC[C@H](NC(=O)c4ccc(C)cc4)CO3)c2c1; organism = Mycobacterium tuberculosis; test system = H37Rv rpoB S450L mutant; endpoint = MIC; value = > 32 µg/mL
SMILES = CN[C@@H]1[C@H](O)[C@H](NC)[C@H]2O[C@]3(O)[C@H](O[C@@H]2[C@H]1O)O[C@H](C)C[C@H]3NC(=O)Cc1cc(Cl)ccn1; organism = Mycobacterium tuberculosis; test system = MDR clinical isolates; endpoint = MIC; value = 1 µg/mL
